Assay results from different studies.
Parts stem from different laboratories: compare values within a part only.

Sample 1 — technique: EMSA with sequencing; molecule type: double-stranded DNA, one strand shown; sample: in vitro; tested at: 10 and 20 nM; relative to: negative control set to 0; reading: higher = stronger binding; quantity: normalised bound fraction
Target: Hepatocyte nuclear factor 3-alpha (Foxa1, Mus musculus, UniProt P35582, residues 1-468, full length assumed)
UniProt P35582, sequence (whole entry, looked up): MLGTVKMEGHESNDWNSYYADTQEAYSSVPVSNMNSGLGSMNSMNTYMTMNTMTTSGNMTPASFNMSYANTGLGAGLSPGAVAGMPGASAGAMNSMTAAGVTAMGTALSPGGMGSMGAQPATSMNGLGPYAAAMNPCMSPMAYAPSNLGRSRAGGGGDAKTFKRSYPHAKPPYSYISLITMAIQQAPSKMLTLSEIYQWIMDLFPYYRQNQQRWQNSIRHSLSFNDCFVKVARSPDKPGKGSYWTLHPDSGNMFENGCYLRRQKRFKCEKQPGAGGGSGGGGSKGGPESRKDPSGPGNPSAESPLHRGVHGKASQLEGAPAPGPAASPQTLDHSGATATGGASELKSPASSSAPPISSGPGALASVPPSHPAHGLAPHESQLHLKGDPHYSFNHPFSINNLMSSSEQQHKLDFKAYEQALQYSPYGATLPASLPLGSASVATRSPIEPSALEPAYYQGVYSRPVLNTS
Notes: whole designed probe, mean of two concentrations, ends assumed
Oligonucleotide = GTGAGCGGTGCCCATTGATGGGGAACAAGAAAAATTATGGCAAAAAAAAAAAGAAAAAAAAAGAAAAAAAAAGATTTCACCTTTCTTTTCCTTCCATGAGACAAGGGGCTAACAACTGTGTCATCTTGAAGTTCTCCACTAGAGGGAACTAATTCCACGTCCTCCAATCGTGAGCTTCATCAGGATGTGTCTGAGAACAGTGCTCTCTCCATGTTTAGATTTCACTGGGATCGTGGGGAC; value = -0.0743 ratio
Oligonucleotide = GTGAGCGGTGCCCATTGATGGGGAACTCTATTCAACAAATTAATTGATGTCTAGAAAAATTAATAAGGAATATTCAAGAAACGGTAACTTTTTAACCTTGCAAGAATATAAAAACAAAGTAATCTTCAACGAGAAATTTATTTGTAAATGAGACACCCAGGTGTATTCATTTGCATTTTATTAATGGAAATTTTTTCCTGAAATGACCATGAAACTTGATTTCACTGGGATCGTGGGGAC; value = 0.0343 ratio
Oligonucleotide = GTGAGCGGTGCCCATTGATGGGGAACTTGAGTTGTGGGTACCATATACCCGTGTAAGTCTACATTTAACACTGAACCCTTTGTGTTGAGTACTCTGCATACAGTGTCATCATACCTTGAGTATTTACATTTAGTCATCATGTTTTCAAATAGTCCCGCCCTGCCCCTTCCCAGGACTGCAGTGATACTTACGTTAGAGCACTTGATGTTATCCCACAGGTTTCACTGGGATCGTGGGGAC; value = 0.271 ratio
Oligonucleotide = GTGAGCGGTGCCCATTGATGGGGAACTCGGCCAGCCTGGCTTCTGCGCCCCGCCAGGAGGTCGCGGAGCGGAGCGCGGCCAGGAAGTGAGCTGAGAGTGACAGCTCCCCCCACGCGAGAATAAACAAACATCCACACACTGGCTCTTCTTATGACTCATTCTCTTTCGGGAGGAGGGGAGAAAGGAGCGGGAGGGCGGGCGGGCAGGGGAGAGGCAGGCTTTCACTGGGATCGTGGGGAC; value = 0.373 ratio
Oligonucleotide = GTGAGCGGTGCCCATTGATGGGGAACTCCTTCTCTCCAGCTCCACCTGGTCCTGGGAAGAGGGACTGCCACACCGGATGGACTGAGGTCTGAAGCCAGCTCCTGCCACTTGTGCTCTGTGTCAATAAGGCATCTCCCTCTCTGGCTTCCAGTTCCTCCTCTATGAGTAGGTAATGGGGTTACGCTCCATTTCTTGTGGGGAAATGTGAAGCTCGTATGATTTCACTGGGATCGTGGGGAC; value = 0.263 ratio
Oligonucleotide = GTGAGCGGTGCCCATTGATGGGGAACTAATGTCTCCACATATGTTAAGTTTTATTCATATTAAGATAAAATCAACGTATGTAAAACATGGCCTATAAAATCTTGTAAAATCAGGTCCCTGTTTACATTAACCTGGGAGAAAAAGATGAATATTATCTACCTGCTATTATCCTGTCATTTTGTACGTGTTCTCTCAATCCAAACACTTTTACAGAACAGGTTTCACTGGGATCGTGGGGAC; value = 0.191 ratio
Oligonucleotide = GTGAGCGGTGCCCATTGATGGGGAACATCTTCCCCCTCTTCCTTGCCCCACCAGCTCACCTACGGGGGTTATTTGCACAAAGGAAAATAAATAAAGCCGGCATTCGTTAACGCAGTTCACGCGCATACTGCTGTTTGCTCTGCATGAATCATGGTCCTTACGCGAGGCGTGGCTCCGGGAGAGCAAAGCACCGTGTCAGGCGCATGATCCGGGGTGGCCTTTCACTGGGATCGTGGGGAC; value = 0.388 ratio
Oligonucleotide = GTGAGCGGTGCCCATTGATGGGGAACGCCTAATTTGTCTCTTCCAGTAAAAGTATTTGAGAAATTTTCCATTGCCCAATACCTTCCCATGATGGAAAATACACTGCATGGAAGGTATGTGTAAATATTTGATTCGTGTTTTACTGATTTCAGTGTCACAACCTAGCAATCATTAACACTTCGAAAAACATACACCTGGTTAGTTGTTTCCAAAGTACATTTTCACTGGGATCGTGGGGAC; value = 0.146 ratio

Sample 2 — technique: universal PBM; molecule type: double-stranded DNA, one strand shown; sample: in vitro; tested at: 600 nM; reading: higher = stronger binding; quantity: E-score
Target: Sal-like protein 4, full length isoform A (SALL4, Homo sapiens, UniProt Q9UJQ4, residues 1-1053)
UniProt Q9UJQ4, sequence (whole entry, looked up): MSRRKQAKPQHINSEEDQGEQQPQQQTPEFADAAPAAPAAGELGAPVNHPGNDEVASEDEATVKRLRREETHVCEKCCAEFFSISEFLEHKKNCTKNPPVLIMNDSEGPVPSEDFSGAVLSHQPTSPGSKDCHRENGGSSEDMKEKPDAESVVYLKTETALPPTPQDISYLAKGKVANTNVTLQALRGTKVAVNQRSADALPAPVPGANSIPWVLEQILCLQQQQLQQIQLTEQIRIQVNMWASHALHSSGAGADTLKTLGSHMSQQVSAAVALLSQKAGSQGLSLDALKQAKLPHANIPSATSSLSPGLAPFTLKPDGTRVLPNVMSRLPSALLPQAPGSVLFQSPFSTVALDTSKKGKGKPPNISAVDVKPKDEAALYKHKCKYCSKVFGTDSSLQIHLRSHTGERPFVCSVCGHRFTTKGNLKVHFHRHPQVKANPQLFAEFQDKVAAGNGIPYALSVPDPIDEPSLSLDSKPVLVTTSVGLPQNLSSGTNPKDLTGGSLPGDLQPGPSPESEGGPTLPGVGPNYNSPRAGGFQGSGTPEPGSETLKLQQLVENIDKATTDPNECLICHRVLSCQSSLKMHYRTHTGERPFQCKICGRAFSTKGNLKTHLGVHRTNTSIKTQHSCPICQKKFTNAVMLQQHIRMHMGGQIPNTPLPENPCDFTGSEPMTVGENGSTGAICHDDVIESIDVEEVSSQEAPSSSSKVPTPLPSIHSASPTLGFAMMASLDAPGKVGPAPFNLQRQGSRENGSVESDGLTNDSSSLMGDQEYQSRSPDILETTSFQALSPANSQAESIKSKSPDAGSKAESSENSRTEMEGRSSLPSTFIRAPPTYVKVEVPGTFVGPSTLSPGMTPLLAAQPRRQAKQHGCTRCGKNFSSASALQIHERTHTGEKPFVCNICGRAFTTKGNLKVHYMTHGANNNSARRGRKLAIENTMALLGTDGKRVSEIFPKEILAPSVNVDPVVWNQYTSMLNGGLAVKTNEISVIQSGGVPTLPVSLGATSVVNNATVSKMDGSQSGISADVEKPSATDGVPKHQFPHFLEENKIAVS
Notes: 8-mer, flanks averaged, mean of replicates
Oligonucleotide = ACCGAACA; value = 0.0803
Oligonucleotide = GGGTTTTA; value = 0.00575
Oligonucleotide = TGGGCCCA; value = -0.26
Oligonucleotide = AATCTCCC; value = -0.131
Oligonucleotide = TAGTCCGA; value = -0.083
Oligonucleotide = GCTCCAGA; value = -0.305
Oligonucleotide = AAGATTCA; value = 0.162
Oligonucleotide = CCAAAACG; value = -0.0531
Oligonucleotide = GGTGGTCA; value = -0.16
Oligonucleotide = CCCGCAGA; value = -0.164
Oligonucleotide = AAGATAGG; value = 0.0935
Oligonucleotide = CATGGCTA; value = 0.0812
Oligonucleotide = AGTGGGGC; value = -0.397
Oligonucleotide = AGCAAGAT; value = 0.0882
Oligonucleotide = TAATCAGA; value = 0.242
Oligonucleotide = GGACGGCA; value = -0.173
Oligonucleotide = ATGCTCCC; value = -0.258
Oligonucleotide = TGCGGAAA; value = 0.055
Oligonucleotide = ACGTATTG; value = 0.0936
Oligonucleotide = GGAACCGA; value = -0.234
Oligonucleotide = AGGACTTG; value = -0.199
Oligonucleotide = CCAAAAAC; value = 0.116
Oligonucleotide = AGGTGGGC; value = -0.351
Oligonucleotide = ACAAGACT; value = 0.111
Oligonucleotide = CTATCCCC; value = -0.233

Sample 3 — technique: RNA Bind-n-Seq; molecule type: RNA; sample: in vitro; tested at: not given; relative to: input RNA pool; reading: higher = stronger binding; quantity: bound/input enrichment
Target: RING finger protein unkempt homolog, zinc fingers 1-6, GST-SBP tag (UNK, Homo sapiens, UniProt Q9C0B0, residues 30-357)
Notes: RNA with constant flanks, human-mouse chimeric sites, ends assumed
Residues (chain): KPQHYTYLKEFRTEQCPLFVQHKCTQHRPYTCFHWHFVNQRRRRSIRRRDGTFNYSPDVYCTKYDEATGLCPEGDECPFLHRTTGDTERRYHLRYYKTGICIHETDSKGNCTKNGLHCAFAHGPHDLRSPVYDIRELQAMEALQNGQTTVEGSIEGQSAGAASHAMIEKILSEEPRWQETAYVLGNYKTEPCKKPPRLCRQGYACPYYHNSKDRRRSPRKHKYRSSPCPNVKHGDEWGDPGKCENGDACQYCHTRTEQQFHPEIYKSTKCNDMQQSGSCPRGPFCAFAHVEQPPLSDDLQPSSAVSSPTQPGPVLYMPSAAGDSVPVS
Oligonucleotide = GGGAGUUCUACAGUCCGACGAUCAUAGAUGAAAUUGAUGUAGAUCAGGAAGGAAUUGCUGAAAUGAUCCUGGAUGAAAAUGCUAUUGCUCAGGUCCCACGCCCUGGCACAUCUUUGAAGCUCCCUGGAACUAACCAAACAGGACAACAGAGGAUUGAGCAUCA; value = 0.461 ratio
Oligonucleotide = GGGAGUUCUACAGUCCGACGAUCUCUUAACUUAUUCAUUUCUUAUUUUUAUAUAGCUAGAUAAAUAUUGUUAGUCUUAGACAAUAGCUCACAUCUUUACAGAAGCAUGCCCUCCCUGUCCAUUUGUCUUAUAACAUGACCCAGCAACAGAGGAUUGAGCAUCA; value = 65.5 ratio
Oligonucleotide = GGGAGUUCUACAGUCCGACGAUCGGACAUCUGUCAAAUUGUUAUGUUCCUGUGAAACAAGUGAGCACUUUGAUACACUUCAUUUAGUUGUACAUCUGUAUGAUAGAGAAAUGUAAAUAUGUUAAUCCAAGCAAUGUGUCACUUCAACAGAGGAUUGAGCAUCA; value = 0.408 ratio
Oligonucleotide = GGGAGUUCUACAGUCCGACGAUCUUUGUAUUUAUGCUAAGCACACGUGCUGGUGGUCUUGGCAUCAAUCUUGCAACUGCUGAUGUAGUCAUUUUAUAUGACUCAGAUUGGAAUCCGCAAGUAGAUCUUCAGGCUAUGGACCGUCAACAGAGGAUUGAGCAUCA; value = 0.144 ratio
Oligonucleotide = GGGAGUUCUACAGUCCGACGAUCGUAUACGGUUAUCGAGGAAAGGACUGUAGAGCGAAUGUAUACCUGCUUCCCACAGGGAAAAUAGUUUAUUUUAUCGCAUCAGUAGUAGUCCUGUUUAAUUAUGAGGAGAGGACUCAGCGACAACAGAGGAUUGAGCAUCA; value = 15.3 ratio
Oligonucleotide = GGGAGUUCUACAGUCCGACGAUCAGAUUCCCCCUCCUGAGACCUCCUCCGAAGUUGGAGUCUCUUAUAGAUGGUUCAUCUCCUGUUAGCGUUUUAGUUUGGACCACCCAGCCUUGGACAAUUCCCGCCAACCAGGCAAUUUGCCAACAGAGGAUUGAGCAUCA; value = 1.94 ratio
Oligonucleotide = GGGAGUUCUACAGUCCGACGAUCGCUCUUGGGAAUGUAAUCAGCGCCUUGGGGGACAAGAGCAAGAGAGCCACCCAUGUCCCUUACAGAGACUCUAAGCUAACAAGACUAUUGCAGGAUUCCCUCGGGGGUAACAGCCAAACCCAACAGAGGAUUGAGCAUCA; value = 0.2 ratio
Oligonucleotide = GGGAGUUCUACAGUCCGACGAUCUUCAAAGAAAAGGGCAGCUGUGUCAUUUCAUAAGUAACUCUGGGGGAUAAGUGGAAGGUUCUUUUGUUUAAUUUUCCCCCAAAUGAAGCCAAAGUGUUUUUUAAGGAACUGAGAAAAAAUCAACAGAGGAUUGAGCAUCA; value = 0.169 ratio
Oligonucleotide = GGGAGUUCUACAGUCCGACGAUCUGUAGUUUCUUGAUUUAGUGGCUGGGCCUUUUCUUUCAGAUCGUCAGGAAAAGCCUAAAGAUUAGGUUGUAAGAAAAACAGAAGCCAUGUUUCGAAGACCUGUGUUACAGGUAUUUCGUCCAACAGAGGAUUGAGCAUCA; value = 0.385 ratio
Oligonucleotide = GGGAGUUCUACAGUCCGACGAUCGGAUUCCGCUUCCGGUUCCGUUGGGCUCGGUUCUCUCCUGAGCUACGUGUCUCUACGCUCUCAAUCCGCCAUCCAACGGCAGUCAUGCAGGUAAUGCAGUUUGUGGAGCCCAGCCGGCAGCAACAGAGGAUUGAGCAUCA; value = 0.0504 ratio
Oligonucleotide = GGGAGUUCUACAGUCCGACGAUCGGAUUCCGCUUCCGGUUCCGUUGGGCUAGCAAGCUCCCUGAGCUACGUGUCUCUACGCUCUCAAUCCGCCAUCCAACAAACAUGGAUCAGGUAAUGCAGUUUGUGGAGCCCAGCCGGCAGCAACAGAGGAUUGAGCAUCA; value = 0.0582 ratio

Sample 4 — technique: protein-binding microarray; molecule type: double-stranded DNA, one strand shown; sample: in vitro; tested at: not given; reading: higher = stronger binding; quantity: E-score
Target: Transcriptional repressor CTCF (CTCF, Homo sapiens, UniProt P49711, residues 1-727, full length assumed)
UniProt P49711, sequence (whole entry, looked up): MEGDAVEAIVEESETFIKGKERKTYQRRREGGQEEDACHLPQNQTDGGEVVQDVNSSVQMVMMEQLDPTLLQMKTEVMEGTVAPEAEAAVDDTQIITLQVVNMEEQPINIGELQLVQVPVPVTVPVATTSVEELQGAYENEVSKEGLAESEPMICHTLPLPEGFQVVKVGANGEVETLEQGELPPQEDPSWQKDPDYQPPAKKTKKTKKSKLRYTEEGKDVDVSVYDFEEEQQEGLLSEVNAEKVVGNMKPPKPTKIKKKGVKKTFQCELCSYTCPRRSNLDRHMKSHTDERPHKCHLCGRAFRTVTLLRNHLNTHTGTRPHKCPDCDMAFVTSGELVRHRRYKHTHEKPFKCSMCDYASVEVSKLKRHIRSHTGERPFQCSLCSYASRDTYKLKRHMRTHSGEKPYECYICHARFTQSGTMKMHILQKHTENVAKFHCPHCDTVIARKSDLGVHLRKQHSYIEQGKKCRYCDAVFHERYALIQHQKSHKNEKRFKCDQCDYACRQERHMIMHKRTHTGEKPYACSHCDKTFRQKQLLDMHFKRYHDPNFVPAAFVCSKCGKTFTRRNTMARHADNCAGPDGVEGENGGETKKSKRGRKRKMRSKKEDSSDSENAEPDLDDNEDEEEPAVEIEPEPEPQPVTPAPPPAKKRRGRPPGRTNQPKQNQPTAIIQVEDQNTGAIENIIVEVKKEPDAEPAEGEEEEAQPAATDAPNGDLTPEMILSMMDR
Notes: k-mer, scored over probes, only values ≥0.25
Oligonucleotide = ATTATAAG; value = 0.322
Oligonucleotide = TAACAACA; value = 0.271
Oligonucleotide = ACAAATAG; value = 0.254
Oligonucleotide = AATTATAC; value = 0.341
Oligonucleotide = ACAAATAA; value = 0.373
Oligonucleotide = CCACATGC; value = 0.277
Oligonucleotide = ATTTATTA; value = 0.287
Oligonucleotide = ATTACGCA; value = 0.274
Oligonucleotide = ATATACAC; value = 0.294
Oligonucleotide = ATATTTGC; value = 0.293
Oligonucleotide = AAGTTATG; value = 0.277
Oligonucleotide = TGTGAAAA; value = 0.324
Oligonucleotide = ATAAATAC; value = 0.288
Oligonucleotide = ATTCGCGC; value = 0.343
Oligonucleotide = AATAAATG; value = 0.274
Oligonucleotide = TATAAACA; value = 0.344
Oligonucleotide = GTACAAAA; value = 0.296
Oligonucleotide = AAATATTT; value = 0.307
Oligonucleotide = ATACATAT; value = 0.36
Oligonucleotide = GAAACATA; value = 0.304

A few entries again (sample 4):
Oligonucleotide = ATTTATTA; value = 0.287
Oligonucleotide = CCACATGC; value = 0.277
Oligonucleotide = GTACAAAA; value = 0.296
Oligonucleotide = TAACAACA; value = 0.271
Oligonucleotide = ACAAATAG; value = 0.254
Oligonucleotide = ATAAATAC; value = 0.288
Oligonucleotide = ATACATAT; value = 0.36
Oligonucleotide = GAAACATA; value = 0.304
